{"data": "Experimental data of several laboratories", "target": "Activin receptor type-1B (ACVR1B, Homo sapiens, UniProt P36896)", "note": "Several values in a cell are separate wells, animals, samples, runs or records."}
{"SMILES": "COc1ccc(NC(=O)Nc2ccc3c(c2)C(=O)N(C(C)CO)CC(C)C(CN(C)Cc2ccc4c(c2)OCO4)O3)cc1 (centres unmarked)", "assay": "kinase activity, KinaseProfiler", "conditions": "0.03 µM, species human", "how to read": "baseline: control", "measurement": "remaining activity", "value": "94%"}
{"SMILES": "CN1CCN(Cc2ccc(NC(=O)c3cccc(C#Cc4cnc(N)c5ncccc45)c3)cc2C(F)(F)F)CC1", "assay": "cell-free assay, competition with immobilised ligand", "conditions": "0.5 µM", "measurement": "remaining binding", "value": "100%"}
{"SMILES": "NC(=O)[C@@H](O)C[C@H]1CCc2sc3ncnc(O[C@H]4CC[C@H](N5CCOCC5)CC4)c3c21", "assay": "enzyme activity, inhibitor", "conditions": "10 µM", "measurement": "inhibition", "value": "0%"}
{"SMILES": "Cc1nc2c(F)cc(-c3nc(Nc4ccc(CNC(=O)CCCCCCC(=O)NO)cc4)ncc3F)cc2n1C(C)C", "assay": "enzyme activity, inhibitor", "conditions": "1 µM", "measurement": "inhibition", "value": "49%"}
{"SMILES": "CN1CC[C@@H](COc2cnc(C#N)cc2-c2ccn3nc(NC(=O)C4CC4)cc3c2)C1", "assay": "inhibitor, KinaseProfiler panel", "conditions": "1 µM", "measurement": "inhibition", "value": "18%"}
{"SMILES": "Cc1cnc2nc1Nc1cccc(c1)COC/C=C/COCc1cc(ccc1OCCN1CCOCC1)N2", "assay": "binding", "conditions": "0.1 µM", "measurement": "remaining binding", "value": "98%"}
{"SMILES": "COCC12C(=O)NC3C4(C(OC)CC1O)C1CC5(O)C(OC)C(O)C(OC(C)=O)(C1C5OC(=O)c1ccccc1)C3(O)C(OC)C24 (centres unmarked)", "assay": "kinase activity, inhibitor, ProQinase kinase profiling", "conditions": "25 µM", "how to read": "baseline: control", "measurement": "remaining activity", "value": "105% and 103%"}
{"SMILES": "COc1ccc(O)cc1-c1c[nH]c2ncc(-c3cncc(C(=O)N(C)C)c3)cc12", "assay": "binding, competition with immobilised ligand", "conditions": "0.2 µM", "measurement": "inhibition", "value": "-16.4%"}
{"SMILES": "COc1c(Cl)cccc1Nc1c(-c2ccncc2C#C[C@@]2(C)CCCN2C(=O)/C=C/CN(C)C)[nH]c2c1C(=O)NCC2", "assay": "cell-free assay, competition with immobilised ligand", "conditions": "3 µM", "measurement": "remaining binding", "value": "91%"}
{"SMILES": "O=C(Cc1ccc(OCc2ccccc2)cc1)NC1(C(=O)O)CCN(C(=O)c2ccc(-c3cccc(Cl)c3)cc2)CC1", "assay": "enzyme activity, inhibitor", "conditions": "10 µM", "measurement": "activity vs control", "value": "91%"}
{"SMILES": "COc1cc(Nc2nccc(-c3cnn4nc(OC)ccc34)n2)cc(C(F)(F)F)c1", "assay": "binding, competition with immobilised ligand", "conditions": "1 µM", "measurement": "remaining binding", "value": "100%"}
{"SMILES": "Nc1ncc(-c2cc(-c3cnn(CC(F)(F)F)c3)ncc2F)nc1C(=O)NC1CNCC(F)C1 (centres unmarked)", "assay": "enzyme activity", "conditions": "1 µM", "how to read": "baseline: DMSO control", "measurement": "remaining activity", "value": "108%"}
{"SMILES": "CC(=O)N1c2ccc(-c3ccc(CNC(=O)c4cn5cc(-c6cnc(N)nc6)nc(N6CCOCC6)c5n4)cc3)cc2CC[C@@H]1C", "assay": "binding, competition with immobilised ligand", "conditions": "10 µM", "measurement": "remaining binding", "value": "89%"}
{"SMILES": "CCN1CCN(Cc2ccc(C(=O)Nc3ccc(C)c(NCc4cnc5[nH]ccc5c4OC)c3)cc2C(F)(F)F)CC1", "assay": "binding, competition with immobilised ligand", "conditions": "1 µM", "measurement": "remaining binding", "value": "100%"}
{"SMILES": "CNC1C[S+]2CC[S+]3CC[S+](C1)[Ru-4]321([N]=C=S)[n]2c3ccc(OC)cc3c3c4c(c5cc(F)c[n+]1c5c32)C(=O)NC4=O (centres unmarked)", "assay": "KinomeScan", "conditions": "0.1 µM", "how to read": "baseline: untreated", "measurement": "remaining binding", "value": "92%"}
{"SMILES": "Cc1ccc(-c2c(/C=C(\\C#N)C(=O)NC(C)C)n(CCCO)c3ncnc(N)c23)cc1", "assay": "cell-free assay, competition with immobilised ligand", "conditions": "1 µM", "measurement": "remaining binding", "value": "72%"}
{"SMILES": "CNC(=O)C1CCN(c2cc(C)c(F)cc2NC(=O)c2ccc(-c3cc(O)ccc3C)c(C)c2)CC1", "assay": "binding, competition with immobilised ligand", "conditions": "1 µM", "measurement": "remaining binding", "value": "99%"}
{"note": "Repeated from above:"}
{"SMILES": "CN1CC[C@@H](COc2cnc(C#N)cc2-c2ccn3nc(NC(=O)C4CC4)cc3c2)C1", "assay": "inhibitor, KinaseProfiler panel", "conditions": "1 µM", "measurement": "inhibition", "value": "18%"}
